Experimental data from different studies.
Lines come from different studies, so protocols differ. Several values in a cell are separate wells, animals, samples, runs or records. ± gives the spread as reported.
Sequence of UniProt P25098 (whole entry, looked up): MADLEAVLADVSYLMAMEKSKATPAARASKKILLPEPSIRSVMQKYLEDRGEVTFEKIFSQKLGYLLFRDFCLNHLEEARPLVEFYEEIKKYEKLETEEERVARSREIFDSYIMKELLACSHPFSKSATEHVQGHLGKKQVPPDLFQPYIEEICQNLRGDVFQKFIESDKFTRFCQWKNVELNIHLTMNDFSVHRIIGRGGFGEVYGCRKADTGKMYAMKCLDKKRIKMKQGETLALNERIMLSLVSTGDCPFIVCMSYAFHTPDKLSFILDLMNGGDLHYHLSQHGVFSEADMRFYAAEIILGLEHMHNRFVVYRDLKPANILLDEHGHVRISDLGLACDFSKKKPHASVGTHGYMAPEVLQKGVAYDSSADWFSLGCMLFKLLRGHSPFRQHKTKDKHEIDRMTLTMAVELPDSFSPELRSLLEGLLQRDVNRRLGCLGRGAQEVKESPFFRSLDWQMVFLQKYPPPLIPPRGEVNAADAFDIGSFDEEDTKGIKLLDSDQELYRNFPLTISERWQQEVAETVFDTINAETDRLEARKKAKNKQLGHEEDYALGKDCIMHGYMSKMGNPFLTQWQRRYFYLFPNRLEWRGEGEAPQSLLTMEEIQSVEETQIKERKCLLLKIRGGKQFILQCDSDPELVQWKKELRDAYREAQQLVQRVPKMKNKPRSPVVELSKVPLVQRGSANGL

Structure (SMILES) | tested on | test | system | setting | how to read | quantity | result
C[n+]1cccc2cc(/C=N/NC(=O)N/N=C/c3ccc4c(ccc[n+]4C)c3)ccc21 | telomeric G4 DNA hybrid-2 | FRET melting |  | 1 µM, DNA 0.2 µM |  | ΔTm | 8.9 ± 0.4 °C
N#Cc1ccc(-c2cnc(C(=O)CCCCCCc3ccccc3)o2)nc1 | serine hydrolases (mouse) | competitive ABPP | mouse brain membrane proteome |  |  | off-target inhibition concentration | 100 µM
O=C(Nc1cc(OCCN2CCCC2)c2ccccc2n1)c1cccc(C(=O)Nc2cc(OCCN3CCCC3)c3ccccc3n2)n1 | c-myc G-quadruplex DNA | FRET melting |  | 1 µM, pH 7.4, added: 60 mM potassium |  | ΔTm | 2.9 ± 0.1 K
O=C1C2CC3CC1CC(C(=O)N1CCN(c4ccc([N+](=O)[O-])c5ncccc45)CC1)(C3)C2 | Salmonella typhimurium | Ames test | TA100 | 0.02 µg/well, without S9 |  | mean revertant colonies | 24 colonies/well
C[n+]1cc(/C=N/NC(=O)N/N=C/c2cc3ccccc3[n+](C)c2)cc2ccccc21 | telomeric G4 DNA hybrid-2 | FRET melting |  | 1 µM, DNA 0.2 µM, added: duplex DNA competitor 10 µM |  | ΔTm | 5.9 ± 0.4 °C
C=C1CN(S(=O)(=O)c2ccc(C)cc2)CCCN(Cc2ccccc2)CCCN(S(=O)(=O)c2ccc(C)cc2)C1 | AP-2 complex subunit sigma | SILAC mass spectrometry | SUP-T1 | 10 µM, 17 h | reference: DMSO over compound (reverse) | protein level ratio | 0.19
Cc1ncsc1-c1ccc(C(C)NC(=O)C2CC(O)CN2C(=O)C(NC(=O)CCCCCCCCCCN2CCCC(Nc3ncc(Cl)c(Nc4ccccc4S(=O)(=O)C(C)C)n3)C2)C(C)(C)C)cc1 (stereo not shown) | 22Rv1 | RNA-seq, item: TMEM104 mRNA |  | concentration not given | reference: DMSO | log2 fold change | -1.2
COC1CN([C@H]2CC[C@H]([C@@]3(C)Oc4c(Cl)cc(C(=O)NCc5c(SC)cc(C)[nH]c5=O)c(C)c4O3)CC2)C1 |  | RNA-seq, item: PGLYRP1 mouse homolog | mouse, HT-1376 xenograft, whole blood | dose not given | reference: vehicle | log2 fold change | 0.167
CC(C)C[C@H](NC(=O)[C@H](Cc1ccc(O)cc1)NC(=O)[C@@H](CCCNC(=N)N)NC(=O)[C@@H](CO)NC(=O)[C@H](Cc1ccccc1)NC(=O)[C@H](CC1CCCCC1)NC(=O)[C@H](CC(=O)O)NC(=O)CN1CCN(CC(=O)O)CCN(CC(=O)O)CCN(CC(=O)O)CC1)C(=O)N[C@@H](Cc1c[nH]c2ccccc12)C(=O)N[C@@H](CO)C(=O)O [copper-64 labelled] |  |  | human, upper large intestine | concentration not given, 1 h |  | activity concentration | 1940 Bq/mL and 1310 Bq/mL and 2160 Bq/mL and 1260 Bq/mL and 2000 Bq/mL and 1620 Bq/mL
CCCC[C@H](NC(=O)COCCOCCNC(=O)CN1CCN(CC(=O)O)CCN(CC(=O)O)CC1)C(=O)N[C@H]1CC(=O)NCCCC[C@@H](C(N)=O)NC(=O)[C@H](Cc2c[nH]c3ccccc23)NC(=O)[C@H](CCCNC(=N)N)NC(=O)[C@@H](Cc2ccccc2)NC(=O)[C@H](Cc2c[nH]cn2)NC1=O [technetium-99m labelled] |  |  | C57 mouse, stomach | intravenous, 0.037 MBq, 4 h |  | tissue uptake | 0.28 ± 0.1 %ID/g
O=C(N/N=C/c1cc[n+](CC2CC2)c2ccccc12)c1ccc2ccc(C(=O)N/N=C/c3cc[n+](CC4CC4)c4ccccc34)nc2n1 | telomeric G4 DNA hybrid-2 | FRET melting |  | 1 µM, DNA 0.2 µM, added: duplex DNA competitor 10 µM |  | ΔTm | 25 ± 1.3 °C
[2H]C([2H])([18F])Oc1cc(C(=O)OCC2CCN(CCCC)CC2)ccc1N |  | 5-HT4 receptor binding, PET | rhesus monkey (Macaca mulatta), brain hippocampus | dose not given, baseline scan, unit not given | reference: cerebellum reference region | binding potential BPND | 0.58 ± 0.12
c1ccc(-c2n[nH]cc2-c2ccnc3ccccc23)nc1 | CTK1 (Candida albicans) | kinase binding, MIB/MS competition | Candida albicans lysate | 1 µM | reference: DMSO | log2 fold change | -0.15
O=C(O)C(Cc1c[nH]cn1)N1C(=O)c2ccc3c4ccc5c6c(ccc(c7ccc(c2c37)C1=O)c64)C(=O)N(CCN1CCCCC1)C5=O (stereo not shown) | telomerase | telomerase activity, inhibitor, TRAP | LNCaP | 48 h |  | IC50 | 8100 ± 400 nM
CC(=O)NCCCN(C)CCCNc1cccc2c1C(=O)c1cccc(NCCCN(C)CCCNC(C)=O)c1C2=O | c-myc G-quadruplex DNA | DNA thermal stabilisation, CD melting |  | 4.5 µM, pH 7.4, added: 1.5 µM DNA, 5 mM KCl |  | ΔTm | 9.2 °C
C=Cc1c(C)c2cc3nc(c(CC(=O)[O-])c4[n-]c(cc5nc(cc1[n-]2)C(C)=C5CC)c(C)c4C(=O)[O-])C(CCC(=O)[O-])C3C.[Cu+2].[Na+].[Na+].[Na+] (stereo not shown) | Nrf2 (mouse) | immunofluorescence | RAW264.7 | 10 µM, 2 h | reference: untreated | phospho-Nrf2 level | increased

Structure (SMILES) | tested on | test | system | setting | how to read | quantity | result
Nc1ncc(-c2cc(-c3cnn(CC(F)(F)F)c3)ncc2F)nc1C(=O)NC1CNCC(F)C1 (stereo not shown) | IRAK1 | KINOMEscan |  | 1 µM | reference: DMSO control | remaining binding | 100%
Fc1ccc(Nc2nc(NC3CCCCC3)c3cc(C(F)(F)F)ccc3n2)cc1F | β2AR/β1AR TM6 chimera | β-arrestin2 recruitment, antagonist, BRET |  | added: isoprenaline 1 µM |  | pIC50 | 6.7
CC(C)(C#N)c1ccc2c(c1)N(C(=O)c1ccc([C@@](C)(O)C(F)(F)F)cc1)Cc1cccnc1N2 | IDH1 R132H | 2-HG production, RapidFire MS | MOG-G-UVW overexpressing IDH1 R132H |  |  | IC50 | 213 nM and 281 nM and 202 nM and 216 nM and 168 nM and 208 nM and 157 nM
C=CC(=O)N1[C@@H](c2ccc3c(c2)OCO3)c2[nH]c3ccccc3c2C[C@H]1C(=O)N1CCN(C)CC1 | human cyclin E1 N112C-3xFLAG:CDK2 | co-IP with TMT proteomics, item: RPS5 |  | concentration not given, P46782 | reference: wild type DMSO | relative co-enrichment | 94%
O=C(N/N=C/c1cc[n+](Cc2ccccc2)c2ccccc12)c1cc(C(=O)N/N=C/c2cc[n+](Cc3ccccc3)c3ccccc23)ncn1 | telomeric G4 DNA hybrid-2 | FRET melting |  | 1 µM, DNA 0.2 µM, added: duplex DNA competitor 10 µM |  | ΔTm | 15.3 ± 0.1 °C
O=C1c2ccc3c4ccc5c6c(ccc(c7ccc(c2c37)C(=O)N1CCN1CCCCC1)c64)C(=O)N(CCN1CCCCC1)C5=O | telomerase | enzyme activity, inhibitor, TRAP | cell-free | pH 7.4 |  | IC50 | 8700 ± 400 nM
CC(=O)[O-].O.O.O.O.[Ni+2].[O-]c1ccc(Br)cc1C=NCCN1CCOCC1 |  | FRAP |  | 80 µM |  | ferric reducing power | 18.7%
C=CC(=O)Nc1cccc(Cn2ncc3cnc(Nc4cnn(CCOC)c4)nc32)c1 | RIPK5 human | binding, KINOMEscan |  | 100 nM | lower = stronger binding | percent of control | 88%
O=C(Nc1cnccc1-c1ccc([18F])nc1)c1ccnc(NC(=O)C2CC2)c1 |  |  | FVB/NJ mouse, both sexes, brain | intravenous, 50 min |  | SUV | 0.046
C[n+]1cccc2cc(/C=N/NC(=O)c3cncc(C(=O)N/N=C/c4ccc5c(ccc[n+]5C)c4)n3)ccc21 | telomeric G4 DNA hybrid-2 | FRET melting |  | 1 µM, DNA 0.2 µM |  | ΔTm | 20.7 ± 1 °C
Cc1nn(-c2cccc(N)c2)c(=O)c2cnc(Nc3ccc(N4CCNCC4)cc3)nc12 | Beta-adrenergic receptor kinase 1 (GRK2, Homo sapiens, UniProt P25098) | enzyme activity, inhibitor |  |  |  | IC50 | > 10000 nM
O=C(N/N=C/c1cc[n+](CC2CC2)c2ccccc12)C(=O)N/N=C/c1cc[n+](CC2CC2)c2ccccc12 | telomeric G4 DNA hybrid-2 | FRET melting |  | 1 µM, DNA 0.2 µM, added: duplex DNA competitor 10 µM |  | ΔTm | 3.6 ± 0.7 °C
CNS(=O)(=O)Nc1nccc(Cc2c(C)c3ccc(Oc4ncccc4F)cc3oc2=O)c1F | NCI-H2030 | cell viability |  | 7 days |  | IC50 | > 1000 nM
C[n+]1ccc(/C=N/NC(=O)c2ccc3ccc4ccc(C(=O)N/N=C/c5cc[n+](C)c6ccccc56)nc4c3n2)c2ccccc21 | telomeric G4 DNA hybrid-2 | FRET melting |  | 1 µM, DNA 0.2 µM, added: duplex DNA competitor 10 µM |  | ΔTm | 29.8 ± 0.8 °C
NCCCn1cc(COc2cc(C(=O)Nc3cc(OCCN)c4ccccc4n3)nc(C(=O)Nc3cc(OCCN)c4ccccc4n3)c2)nn1 | c-myc G-quadruplex DNA | FRET melting |  | 1 µM, pH 7.4, added: 60 mM potassium |  | ΔTm | 5.7 ± 0.4 K

Excerpt of the above:
Structure (SMILES) | tested on | test | system | setting | how to read | quantity | result
COC1CN([C@H]2CC[C@H]([C@@]3(C)Oc4c(Cl)cc(C(=O)NCc5c(SC)cc(C)[nH]c5=O)c(C)c4O3)CC2)C1 |  | RNA-seq, item: PGLYRP1 mouse homolog | mouse, HT-1376 xenograft, whole blood | dose not given | reference: vehicle | log2 fold change | 0.167
CC(C)C[C@H](NC(=O)[C@H](Cc1ccc(O)cc1)NC(=O)[C@@H](CCCNC(=N)N)NC(=O)[C@@H](CO)NC(=O)[C@H](Cc1ccccc1)NC(=O)[C@H](CC1CCCCC1)NC(=O)[C@H](CC(=O)O)NC(=O)CN1CCN(CC(=O)O)CCN(CC(=O)O)CCN(CC(=O)O)CC1)C(=O)N[C@@H](Cc1c[nH]c2ccccc12)C(=O)N[C@@H](CO)C(=O)O [copper-64 labelled] |  |  | human, upper large intestine | concentration not given, 1 h |  | activity concentration | 1940 Bq/mL and 1310 Bq/mL and 2160 Bq/mL and 1260 Bq/mL and 2000 Bq/mL and 1620 Bq/mL
CCCC[C@H](NC(=O)COCCOCCNC(=O)CN1CCN(CC(=O)O)CCN(CC(=O)O)CC1)C(=O)N[C@H]1CC(=O)NCCCC[C@@H](C(N)=O)NC(=O)[C@H](Cc2c[nH]c3ccccc23)NC(=O)[C@H](CCCNC(=N)N)NC(=O)[C@@H](Cc2ccccc2)NC(=O)[C@H](Cc2c[nH]cn2)NC1=O [technetium-99m labelled] |  |  | C57 mouse, stomach | intravenous, 0.037 MBq, 4 h |  | tissue uptake | 0.28 ± 0.1 %ID/g
